Assay results pooled from the literature.
Each numbered part is a random draw from the data of one study; scales do not carry over between parts.

Series 1
Target: Fragile X messenger ribonucleoprotein 1, C-terminal low-complexity region (Fmr1, Mus musculus, UniProt P35922)
Technique: RNA Bind-n-Seq
Molecule type: RNA
Sample: in vitro
Concentration: 200 nM
Setting: whole 134-nt RNA, ends assumed
Added: 150 mM LiCl
Reference: input library
Reading: higher = stronger binding
Measurement: log2 enrichment
Each molecule: 7-deaza-guanosine replaces G
All sequences stand within: GGGAGUUCUACAGUCCGACGAUC … UGGAAUUCUCGGGUGUCAAGG
GUCCUGUGCUACACAUCGUAUGUACCGAAUCGGUUUUUUGGGUUUUUUGGGUUUUUUGGAAAGUAUUAUGUUACGCCGUUCGGAUCUGCA: -1.3
ACCAUGCAGGUGGGCAUCUUUGGGAAGUGGGGCAUGGGGGGGAUAGGGAGGGGGGUAACACUUUGGGAACAGGUGGUCCCAGGUCGUUUC: 0.926
CACAGACAACACGCACCCACAAAAACACAGAGGGAAGGGGUUGGGAUGGGGACAGGGUGCACAGCAGGGCGGGGUAGGACCCCAGCCCCU: 0.197
AAGUCCUGUGCUACACAUCGUAUGUACCGAAUCGGAAAGGUUUUUGGAAAAAAAGGAAAGUAUUAUGUUACGCCGUUCGGAUCUGCACUU: -2.2
UGCCGUGCCGGGUGGACGGUCUGCUCGCCUGUCUGCGUGACGAAACUGAGGCACAAAGACGCGCUAUGCCAGCGGCGGGUAUAGCAAGGG: -2.67
CAAGUCCUGUGCUACACAUCGUAUGUACCGAAUCGGUUUUGGUUUUGGGGUUUUGGAAAGUAUUAUGUUACGCCGUUCGGAUCUGCACUU: -1.94
GCCGGAAGUAAAAACAAAUGGAAAUGCUUCGGAUAGUGGCAGGGGUGGGGGUUGCUAAGGAAAGGGUGGGAUGGGAGUGGGUAAAGAGUU: 2.15
GCAGCAAGUAAAAACAAAUGGAAAUGCUUCGGAUAGUGGCAGGGGUGGGGGUUGCUAAGGAAAGGGUGGGAUGGGAGUGGGUAAAGAGUU: 1.25
GUCCUGUGCUACACAUCGUAUGUACCGAAUCGGGAAAAAAAGGGAGGGUUUUUUUGGGAAAGUAUUAUGUUACGCCGUUCGGAUCUGCAC: -1.49
CAAGUCCUGUGCUACACAUCGUAUGUACCGAAUCGGGAGGGAAAAAAAGGGUGGGAAAGUAUUAUGUUACGCCGUUCGGAUCUGCACUUC: -0.871
UAACUUUAGAGGAGGAUCUGAUGGAUAUGGCAGUGGACGUGGAUUUGGGGCUGGCUAUAAUGGGUAUGGAGGAGGACCUGGAGGUGGCAA: 0.56

Series 2
Target: Prothrombin, mature alpha-thrombin (F2, Homo sapiens, UniProt P00734)
Technique: aptamer microarray, sandwich
Molecule type: DNA with 2'F-ANA
Sample: in vitro
Concentration: 200 nM
Setting: whole 15-mer aptamer, many near background
Added: Cy3 exosite-II aptamer, 400 nM
Reading: higher = stronger binding
Measurement: mean fluorescence intensity
Sequence: GGTTGGTGTGGTTGG
2'F-ANA at 2 3 6 8 10 11 12 13 14: 264 a.u.
2'F-ANA at 5 9 14 15: 64.4 a.u.
2'F-ANA at 1 3 4 6 9 10 11 12 13 14: 55 a.u.
2'F-ANA at 3 4 5 8 10 12 13 15: 53.5 a.u.
2'F-ANA at 1 9: 245 a.u.
2'F-ANA at 1 2 3 5 7 11 12 14: 49.7 a.u.
2'F-ANA at 2 3 4 5 6 7 8 9 12: 224 a.u.
2'F-ANA at 1 3 6 7 8 10 11 13 14 15: 63.8 a.u.
2'F-ANA at 1 3 4 5 8 10 11 12 13 14: 45.4 a.u.
2'F-ANA at 2 3 4 7 11 12 13 15: 637 a.u.
2'F-ANA at 1 6 7 11 12 14: 65.4 a.u.
2'F-ANA at 2 4 6 10 11 12 13: 88.9 a.u.
2'F-ANA at 2 6 7 8 9 11 13 14: 111 a.u.
2'F-ANA at 1 2 3 4 7 8 10 14 15: 52.2 a.u.
2'F-ANA at 3 4 5 9 10 13 15: 48.5 a.u.
2'F-ANA at 1 2 3 4 10 11 12 14 15: 50.8 a.u.
2'F-ANA at 1 2 4 7 10 11 13 15: 66.8 a.u.
2'F-ANA at 1 4 6 10 11 15: 56.2 a.u.
2'F-ANA at 2 5 6 8 9 11 12 14: 52.3 a.u.
2'F-ANA at 3 7 8 9 13: 1050 a.u.
2'F-ANA at 1 4 9 10 11 14 15: 47.9 a.u.
2'F-ANA at 1 2 3 4 6 9 12 13 14 15: 66.7 a.u.
2'F-ANA at 1 3 8 10 11 12 13 14: 61 a.u.
2'F-ANA at 1 3 8 9 11 12 13 14: 106 a.u.

Series 3
Target: RNA binding protein fox-1 homolog 2, RRM domain, GST-SBP tag (RBFOX2, Homo sapiens, UniProt O43251-10, residues 100-194)
Technique: RNA Bind-n-Seq
Molecule type: RNA
Sample: in vitro
Concentration: 365 nM
Setting: natural RNA segment, single round, ends assumed
Reference: no-protein control
Reading: higher = stronger binding
Measurement: RBNS enrichment (R)
All sequences stand within: GGGAGUUCUACAGUCCGACGAUC … UGGAAUUCUCGGGUGCCAA
Residues (chain): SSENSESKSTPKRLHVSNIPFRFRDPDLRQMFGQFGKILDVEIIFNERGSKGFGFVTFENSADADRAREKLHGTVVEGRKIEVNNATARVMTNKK
UACCCAUCCUGGUCCUAUGCUGGCAGGAACACACGCGAGUGUCACUGAUUGGCCUCCUUCUGGGAUCCCAGGCUGCUGAGGAAGCUACUGCUACAUCCCUACCCCAAGGG: 0.354
CAGGAUGCUAACAUCUAAAAAUAGACUUAAAUCUCAUUGCUUACAAGCCUAAGAAUCUUUAGAGAAGUAUACAUAAGUUUAGGAUAAAAUAAUGGGAUUUUCUUUUCUUU: 0.417
CCCUUCGCCUCUACUGCGAGGCCUGGGGAGAUGUUGUUUUCAUGCUGCUUCCACCAUCACACUGGGGUUUCUGGAUGGGAAAUAAAAAAAUAAAGGCAGUUCAUUUCCCC: 0.27
ACUGUUAUUUUUUUUUUUUUCACAAUGUGAAACUGAAGGUCAAUAAAUUAUUAGAGAUUUUCUCUUCUUAUGUGUGUGGGUCUUCAUUUGAAUAAGACACAAUUUGAGGC: 0.474
AUUUCCUACACUAUUUGAGCAUGGAAAUCAUAGUCCCCACUCUGUGAAAACUUAACGCUUUUUGGAAGACAUUUCUGUAGCAUGUCAGUUUGGAGAAAUGAUGAGCUACG: 0.899
ACUGACUUCAAUAUUUCAGCAGGGUACACAGGCGUUUCCAAGUUUCAGUGACACCGUCCUGCCUAACCAGAUGCGGUCAGCCUCUUCACACCCACCUGGCUUGCAUCCCC: 0.634
CCAGGGGGUUAUGGCCACAGAGGGAUAGGCACAGUCUCCACCACCCUGGAGCCAAGGGUCUUUCACAUCACCUAUCCCUACAUACAUACCAAAUGGAAAAGUGGCCAUCC: 0.335
ACACAACAAAUGUAUUAAUAACUACCUUGUUAAACACCUUUUAAUAGCACAAGGUUUUUAUAUUUGCAAGCUGUUGAUAUCUUUCUAAAACUGUUUAGGUUAUAGUCUAU: 0.526
CUGAUGCUGACCAGCCUGUUACAGAUACUUUCUACAACCAAAUUCAGAUUUAUUUUUUAUUAAGCAUUAUACCAUGGGCUGUCCUGUGCUCCUGUCACUCUUCAAAAACA: 2.16

Series 4
Target: Centromere-binding protein 1, full length, His-tagged (CBF1, Saccharomyces cerevisiae, UniProt P17106, residues 1-351)
Chain of UniProt P17106 (whole entry, looked up): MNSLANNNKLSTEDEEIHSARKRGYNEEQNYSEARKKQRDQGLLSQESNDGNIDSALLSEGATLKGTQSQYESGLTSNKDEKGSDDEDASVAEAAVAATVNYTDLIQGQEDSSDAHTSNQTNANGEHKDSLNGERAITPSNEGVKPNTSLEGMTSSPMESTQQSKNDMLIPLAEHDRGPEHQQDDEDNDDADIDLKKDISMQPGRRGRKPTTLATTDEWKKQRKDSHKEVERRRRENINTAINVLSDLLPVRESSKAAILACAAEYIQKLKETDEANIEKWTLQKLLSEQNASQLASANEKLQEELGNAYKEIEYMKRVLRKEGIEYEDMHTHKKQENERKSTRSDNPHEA
Technique: competition protein-binding microarray
Molecule type: double-stranded DNA, one strand shown
Sample: in vitro
Concentration: 2 µM
Setting: whole 60-bp probe, lowest competitor level
Added: Pho4 competitor, 0.05 µM
Reading: higher = stronger binding
Measurement: fluorescence intensity
All sequences stand within: … GTCTTGATTCGCTTGACGCTGCTG
CTTCTGTAAATTTGTCACGAAACTTGACGCGCCCCG: 88 a.u.
CGTCCTAGTGATTGTACAGTGGGTGCCATGAGGAAG: 82.4 a.u.
ATATGCTTTTGTTCGCATGTGGTGTTATTCCAGTTG: 147 a.u.
GTAGACCTTGATGTCCATGTGGAAAGCCAAAGCCAT: 99.7 a.u.
CGTCCTAGTGATTGGTTAGTGGGTGCCATGAGGAAG: 73.6 a.u.
CCATCTCTACTGACTCACATGGCCTGGAACGCAAGT: 176 a.u.
GATTATTGGCTAAGTACCGTGATGGTGGTAAGATTG: 116 a.u.
CTTTCCCGATCTTAACACGTGTTTTTAGCACATTTG: 1830 a.u.
CGTCTCCCGCAAAGCCACGCGCCAGCTGACTGGCTC: 69.7 a.u.
CATGCTGTTTTAGCGCGCGTGATGGGGACATAGATG: 194 a.u.
CTTTCCCGATCTTTTCACGTGTTATTAGCACATTTG: 1070 a.u.
GTCTTGTCTCATTGAATGGTGGGTGTCCCCACTTCA: 76.3 a.u.
CATACCCAACCTTGATAAGTGGGTGAAGATATTTGT: 64.1 a.u.
GTCTTGTCTCATTGGAACGTGGGTGTCCCCACTTCA: 115 a.u.
AAATTACTAAGTTTTCACGTGGCTTACCCCGTATGA: 967 a.u.
GTATCTCATCGCTGGCACGGGCAGTACAGTGCCCTG: 60.1 a.u.
TCTATTCCGCGGTAACCTATGGTTACGGCCAGATTT: 53.1 a.u.
CCCGGTATTAGTTTGCACGTTTTCTTTCCTTTGCTT: 308 a.u.
TGAAACAATTCGCGTCGCGTGGGACCCGAAAAGGGC: 103 a.u.
CTCGCGTTAGAGCAGTACGTGGCCGAGCTAAACTCG: 69.6 a.u.
CATACCCAACCTTGGCAGGTGGGTGAAGATATTTGT: 73.1 a.u.
CTTCTGTAAATTTGGGACGTGGGTGGACGCGCCCCG: 92.2 a.u.
CTGCCTTTATTTATTACCGTGCCAGACAAAGGGGCT: 79.3 a.u.
ACAGCAAGCAACCATCACGTGCTAAATCGCAAACTT: 4420 a.u.
TGAGGACATAATACCCACGTGAGTATGACTTTAAAA: 1700 a.u.

Some of these lines once more (series 4):
ATATGCTTTTGTTCGCATGTGGTGTTATTCCAGTTG: 147 a.u.
GTAGACCTTGATGTCCATGTGGAAAGCCAAAGCCAT: 99.7 a.u.
CGTCCTAGTGATTGGTTAGTGGGTGCCATGAGGAAG: 73.6 a.u.
CCATCTCTACTGACTCACATGGCCTGGAACGCAAGT: 176 a.u.
GATTATTGGCTAAGTACCGTGATGGTGGTAAGATTG: 116 a.u.
CTTTCCCGATCTTAACACGTGTTTTTAGCACATTTG: 1830 a.u.
